Published values collected from several papers.
Lines come from different studies, so protocols differ. ± marks the error that the study gave.

With CCCC[C@H](NC(=O)[C@@H](NC(=O)[C@H](CC(=O)O)NC(=O)[C@H](CCC(N)=O)NC(=O)[C@H](CC(C)C)NC(=O)[C@H](CC(C)C)NC(=O)[C@H](CCCN)NC(=O)[C@H](CCCNC(=N)N)NC(=O)[C@H](C)NC(=O)[C@H](CO)NC(=O)[C@H](CC(C)C)NC(=O)[C@H](CCC(N)=O)NC(=O)[C@H](CC)NC(=O)[C@H](CC(C)C)NC(=O)[C@@H](NC(=O)[C@H](CCCN)NC(=O)[C@H](CCCNC(=N)N)NC(=O)[C@H](Cc1ccc(O)cc1)NC(=O)[C@H](CO)NC(=O)[C@H](CCC(N)=O)NC(=O)[C@@H](NC(=O)[C@H](Cc1ccccc1)NC(=O)[C@@H](NC(=O)[C@H](C)NC(=O)[C@H](CC(=O)O)NC(=O)[C@@H](C)NC(=O)[C@H](Cc1ccc(O)cc1)NC)[C@@H](C)CC)[C@@H](C)O)C(C)C)[C@@H](C)CC)C(=O)N[C@@H](CC(=O)O)C(=O)N[C@@H](CCCNC(=N)N)C(=O)NC the relative potency was 449 (GH release; male rat, serum; subcutaneous, dose not given, 30 min; relative to: GHRH(1-29)NH2).
The activation energy of NC(=O)CC[C@H](N)C(=O)N1CCC[C@H]1C(=O)NCC(=O)NCC(=O)O is reported as 20.3 ± 2.87 kcal/mol (diketopiperazine formation, Arrhenius plot, ESI-MS; 1-propanol; 70, 80, 90 °C, 0.5% acetic acid).
With Sc1nnc(-c2cc(Cl)ccc2Cl)o1 the IC50 was 141.9 ± 1.2 µM (superoxide scavenging, pyrogallol).
[2H]C([2H])([2H])C(c1cc2nnc(-c3cc(F)ccc3F)n2nc1OCc1ncnn1C)(C([2H])([2H])[2H])C([2H])([2H])[2H]: “afterdischarge duration change” -76% (amygdala-kindled Wistar rats, cortex; oral, 100 mg/kg, 2 h before stimulation; relative to: baseline).
CCOC(=O)C(Cc1cccc(O)c1)OC(=O)C=Cc1ccc(O)c(O)c1C=Cc1ccc(O)c(O)c1 (stereo not shown): “cardiac injury markers” “no effect” (refers to: CK, CK-MB, AST, LDH; transgelin knockout mice, isoproterenol ischaemia; 10 mg/kg).
For CCCC[C@H](NC(=O)[C@@H](NC(=O)[C@H](CC(=O)O)NC(=O)[C@H](CCC(N)=O)NC(=O)[C@H](CC(C)C)NC(=O)[C@H](CC(C)C)NC(=O)[C@H](CCCN)NC(=O)[C@H](CCCNC(=N)N)NC(=O)[C@H](C)NC(=O)[C@H](CO)NC(=O)[C@H](CC(C)C)NC(=O)[C@H](CCC(N)=O)NC(=O)[C@H](CC)NC(=O)[C@H](CC(C)C)NC(=O)[C@@H](NC(=O)[C@H](CCCN)NC(=O)[C@H](CCCNC(=N)N)NC(=O)[C@H](Cc1ccc(O)cc1)NC(=O)[C@H](CO)NC(=O)[C@H](CCC(N)=O)NC(=O)[C@@H](NC(=O)[C@H](Cc1ccccc1)NC(=O)[C@@H](NC(=O)[C@H](C)NC(=O)[C@H](CC(=O)O)NC(=O)[C@H](C)NC(=O)CCc1ccc(O)cc1)[C@@H](C)CC)[C@@H](C)O)C(C)C)[C@@H](C)CC)C(=O)N[C@@H](CC(=O)O)C(=O)N[C@@H](CCCNC(=N)N)C(=O)NC, the relative potency was 122 (GH release; male rat, serum; subcutaneous, dose not given, 30 min; relative to: GHRH(1-29)NH2).
O=C1/C(=C/c2ccc(O)c(O)c2)Oc2c1c(O)cc(O)c2-c1ccc(O)c(O)c1 has an EC50 of 880 µM (ABTS scavenging, absorbance).
For Cc1cc(O)c(C=O)c2c1C(=O)Oc1c(CO)c(O)c3c(c1O2)C(O)OC3=O (stereo not shown), “relative organ weight” read 0.13 ± 0.01 g (rat, male, streptozotocin-induced diabetes, seminal vesicle; oral, 5 mg/kg, 9 weeks).
With COc1ccc(C2CC(c3ccc(C)cc3)=Nc3ccccc3S2)cc1 (stereo not shown) the total cholesterol was 148 mg/dL (Wistar rat, STZ-induced diabetes, serum; 10 mg/kg, 28 days).
O=C1O/C(=C\c2cc(F)ccc2OCCN2CCOCC2)c2cc(Cc3cccc(F)c3)[nH]c(=O)c21 — result for α-SMA level: “decreased” (Western blot; rat, bleomycin-induced pulmonary fibrosis, lung; intraperitoneal, 5.0 mg/kg twice daily, 28 days).

Repeated from above:
With COc1ccc(C2CC(c3ccc(C)cc3)=Nc3ccccc3S2)cc1 (stereo not shown) the total cholesterol was 148 mg/dL (Wistar rat, STZ-induced diabetes, serum; 10 mg/kg, 28 days).
[2H]C([2H])([2H])C(c1cc2nnc(-c3cc(F)ccc3F)n2nc1OCc1ncnn1C)(C([2H])([2H])[2H])C([2H])([2H])[2H]: “afterdischarge duration change” -76% (amygdala-kindled Wistar rats, cortex; oral, 100 mg/kg, 2 h before stimulation; relative to: baseline).
